Assay results collected from several papers.
Compare with care: the assays were run in different laboratories.

Under “patients with adverse event”, C[C@@H]1OC(=O)NN=C1c1ccc(-c2ccc(F)cc2)c(C(F)(F)F)c1 is recorded as 0% (phase I trial, item: Ascites all grades; human patients; 10 mg loading then 0.5 mg daily).
Under “patients with stomatitis”, COc1ncnn2ccc(-c3cnc4nc(C)n(Cc5nnc([C@@H](C)F)o5)c4c3)c12 is recorded as 0% (human; oral, dose not given, grade 3).
For Cn1nc(NS(C)(=O)=O)c2c(Cl)ccc(-n3c([C@H](Cc4cc(F)cc(F)c4)NC(=O)Cn4nc(C(F)F)c5c4C(F)(F)[C@@H]4C[C@H]54)nc4nc(OCCC(F)(F)F)ccc4c3=O)c21, “patients with laboratory abnormality” read 0% (item: total cholesterol grade 3 increase; human; 400 mg once daily, powder in bottle).
For CN[C@@H](C)C(=O)N[C@H]1CN(S(=O)(=O)c2cccc(S(=O)(=O)N3CC[C@H]4CC[C@@H](C(=O)NC(c5ccccc5)c5ccccc5)N4C(=O)[C@@H](NC(=O)[C@H](C)NC)C3)c2)CC[C@H]2CC[C@@H](C(=O)NC(c3ccccc3)c3ccccc3)N2C1=O, “patients with treatment-related asthenia” read 0% (human, advanced solid tumours; 0.6 mg).
For N[C@@H]1c2ccccc2OC12CCN(c1cnc3c(N4CCCc5ncccc54)n[nH]c3n1)CC2, “patients with treatment-related adverse event” read 12% (item: Anemia; human advanced or metastatic solid tumours; oral, 60 mg once daily, phase Ia pooled cohort).
Under “patients with nausea”, C=CC(=O)Nc1cc(Nc2nccc(Nc3cc(Cl)c(F)cc3C(C)(C)O)n2)c(OC)cc1N1CC[C@@H](N(C)C)C1 is recorded as 37.3% (human patients; oral, 300 mg, treatment-emergent adverse events).
Under “patients with vomiting”, O=C1Nc2cc3[nH]nc(-c4ccncc4)c3cc2CN1Cc1ccccc1 is recorded as 25% (CTCAE v4.03; human, relapsed or refractory advanced solid tumours; intravenous, 4.8 mg/kg, pooled schedules).
COc1ccc(-c2c(-c3ccc(C#N)c(F)c3)nc(N3CCC(N)CC3)n(C)c2=O)cc1F: “patients with serious TEAE” 2% (item: weight decreased; human patients; oral, dose not given, dose escalation).
For Cn1cncc1-c1c(F)cncc1NC(=O)c1c(N)nn2cc(F)cnc12, “patients grade ≥3 white cell decrease” read 0% (human patients; oral, 180 mg once daily, 2 weeks on 1 week off).
For Cc1cn([C@H]2O[C@@H](CO[P@@](=O)(N[C@@H](C)C(=O)OC(C)C)Oc3ccccc3)[C@H](O)[C@H]2F)c(=O)[nH]c1=O, “patients with TEAE” read 0% (item: Fatigue; human; 50 mg).
CN(C)C(=O)c1cc2cnc(Nc3ccc(N4CCNCC4)cn3)nc2n1C1CCCC1 — result for “patients with adverse event”: 77.9% (item: Neutropenia, AESI; human, HR+/HER2− advanced breast cancer; oral, dose not given, all grades, CTCAE v4.03).
Under “patients with any TEAE”, C[C@]1(O)C[C@@](N)(c2ccc(-c3nc4n(c3-c3ccccc3)COc3ccncc3-4)cc2)C1 is recorded as 85.7% (human, advanced or metastatic solid tumours; dose not given, intermittent dose escalation total).

A few entries again:
For Cn1cncc1-c1c(F)cncc1NC(=O)c1c(N)nn2cc(F)cnc12, “patients grade ≥3 white cell decrease” read 0% (human patients; oral, 180 mg once daily, 2 weeks on 1 week off).
For Cc1cn([C@H]2O[C@@H](CO[P@@](=O)(N[C@@H](C)C(=O)OC(C)C)Oc3ccccc3)[C@H](O)[C@H]2F)c(=O)[nH]c1=O, “patients with TEAE” read 0% (item: Fatigue; human; 50 mg).
